Experimental data of several laboratories.
Several values in a cell are separate wells, animals, samples, runs or records. ± gives the spread as reported.
Organism: Plasmodium falciparum

Compound | assay | test system | setting | IC50
Cc1cccc(C(=O)NOCCCCCC(=O)NO)c1 | parasite growth | HN12, NF54 | 72 h, gametocyte | ≤ 1000 nM
COc1ccc(C2CC(=O)C3=C(C2)NC(C)=C(C(=O)OC(C)C)C3c2ccccc2C)cc1OC (centres unmarked) | female gamete formation, item: Pfs25 | stage V gametocytes | 24 h, compound washed out before gametes | > 20000 nM
Clc1ccc2c(Nc3ccc(N4CCOCC4)cc3)ccnc2c1 | parasite growth, SYBR Green | DD2 | 72 h, drug-resistant strain, blood stage | ≥ 250 nM
C=C(C)[C@@H]1CC[C@]2(CO)CC[C@]3(C)[C@H](CC[C@@H]4[C@@]5(C)CC[C@H](O)[C@@](C)(CO)[C@@H]5CC[C@]43C)[C@@H]12 | parasite growth | Dd2 drug-resistant | 72 h | 1330 ± 370 nM
CC(C)(C)c1ccc(O)c(CNC2CCCCC2)c1 | exflagellation | stage V gametocytes | 24 h, compound carried over | > 20000 nM
CCOC(=O)CSC(=S)Nc1ccc(Cl)cc1 | parasite growth, [3H]hypoxanthine incorporation | NF54 (chloroquine-sensitive) |  | > 34500 nM
C[C@H]1[C@@H](Oc2cccc(N[C@@H]3[C@H](C)O[C@@H]4O[C@@]5(C)CC[C@H]6[C@H](C)CC[C@@H]3[C@@]46OO5)c2)O[C@@H]2O[C@@]3(C)CC[C@H]4[C@H](C)CC[C@@H]1[C@@]24OO3 | parasite growth | D6 | 72 h, blood stage | < 10 nM
Clc1ccc2c(Nc3ccc(C4CCNCC4)cc3)ccnc2c1 | parasite growth, SYBR Green | DD2 | 72 h, drug-resistant strain, blood stage | 71 nM
CCOC(=O)C1=C(C)NC2=C(C(=O)CC(c3ccc(OC)c(OC)c3)C2)C1c1ccccc1Cl (centres unmarked) | male gamete formation | stage V gametocytes | 24 h, compound washed out | 264 nM
C=C(C)C1CCC2(CO)CCC3(C)C(CCC4C5(C)CCC(OC(=O)/C=C/c6ccc(O)cc6)C(C)(CO)C5CCC43C)C12 (centres unmarked) | parasite growth | Dd2 drug-resistant | 72 h | 650 ± 60 nM
COC1=CC(c2ccc[nH]2)=N/C1=C\c1[nH]c(Cc2ccc(Cl)cc2)cc1Cc1ccc(Cl)cc1 | parasite growth | D6 | 72 h | < 8.3 nM
Brc1ccc(Nc2nc(NCc3ccccc3)c3ccccc3n2)cc1 | parasite growth | 3D7 | 72 h, asynchronous culture | 682 ± 213 nM
CCN(CC)CCCC(C)Nc1ccnc2cc(Cl)ccc12 (centres unmarked) | parasite growth, [3H]hypoxanthine incorporation | NF54 | 72 h | 8 nM
COc1ccc(C(=O)/C=C/c2ccc(O)c(CN3CCN(c4ccnc5cc(Cl)ccc45)CC3)c2)c(OC)c1 | parasite growth | D10 | blood stage | 300 to 600 nM
CCN(CC)CCCC(C)Nc1ccnc2cc(Cl)ccc12 (centres unmarked) | schizont maturation | field isolates | 20% human serum | 340 nM
CC(C)(C)NC(=O)[C@@H]1CN(Cc2cnc3occc3c2)CCN1C[C@@H](O)C[C@@H](Cc1ccccc1)C(=O)N[C@H]1c2ccccc2C[C@H]1O | schizont development | INDO | 12 h, early to late schizont | < 5000 nM
CNC(=O)C1Cc2c([nH]c3ccccc23)C(c2ccc(Cl)cc2Br)N1 (centres unmarked) | parasite growth | Dd2 |  | 340 ± 60 nM
C[C@H]1[C@@H](OC/C=C\CO)O[C@@H]2O[C@@]3(C)CC[C@H]4[C@H](C)CC[C@@H]1[C@@]24OO3 | parasite growth | W2 | 72 h, drug-resistant strain, blood stage | < 10 nM
C/C(=C/CC/C(C)=C\C(=O)C[C@]1(C)CCc2cc(O)cc(C)c2O1)CO | parasite growth, SYBR Green | DD2 | 72 h, drug-resistant strain, blood stage | > 112000 nM
[H]/N=C(\N/C(=N/[H])Nc1ccc(Cl)cc1)NC(C)C | oxygen consumption | K1 |  | > 10000 nM
CCCCN(CCCC)CC(O)c1cc(Cl)cc2c1-c1ccc(Cl)cc1/C2=C/c1ccc(Cl)cc1 (centres unmarked) | parasite growth |  | drug-resistant strain, blood stage | 3 nM
COc1cc(/C=C/C(C)=O)ccc1OCc1cn(-c2ccnc3cc(Cl)ccc23)nn1 | parasite growth | DD2 | drug-resistant strain, blood stage | 700 nM

Compound | assay | test system | setting | IC50
CCN1CCN(c2ccc(Nc3ccnc4cc(Cl)c(Cl)cc34)cc2)CC1 | parasite growth, SYBR Green | DD2 | 72 h, drug-resistant strain, blood stage | 26 nM
CC1(c2ccccc2)NC(C(=O)O)Cc2c1[nH]c1ccccc21 (centres unmarked) | parasite growth | Dd2 |  | > 5000 nM
CCOC(=O)C(=CNc1cccc(N(C)C)c1)C(=O)OCC | parasite growth, [3H]hypoxanthine incorporation | NF54 (chloroquine-sensitive) |  | 26000 nM and 26300 nM
C[C@H]1[C@@H](O)O[C@@H]2O[C@@]3(C)CC[C@H]4[C@H](C)CC[C@@H]1[C@@]24OO3 | parasite growth, flow cytometry | 3D7 | 48 h, blood stage | 5.69 nM
COc1ccc(C(=O)/C=C/c2cc(CN3CCN(c4ccnc5cc(Cl)ccc45)CC3)c(O)c(OC)c2)c(OC)c1 | parasite growth | W2 | drug-resistant strain, blood stage | 300 to 600 nM
CCOC(=O)/C(C#N)=C/NCCc1c[nH]c2ccccc12 | parasite growth, [3H]hypoxanthine incorporation | NF54 (chloroquine-sensitive) |  | > 35300 nM
CCN(CC)CCCC(C)Nc1ccnc2cc(Cl)ccc12 (centres unmarked) | parasite growth, SYBR Green | NF54 | 96 h, blood stage | 13 nM
C[C@H]1[C@@H](OC/C=C\CO[C@H]2O[C@@H]3O[C@@]4(C)CC[C@H]5[C@H](C)CC[C@@H]([C@H]2C)[C@@]35OO4)O[C@@H]2O[C@@]3(C)CC[C@H]4[C@H](C)CC[C@@H]1[C@@]24OO3 | parasite growth | W2 | 72 h, drug-resistant strain, blood stage | < 10 nM
CNC(=O)C1Cc2c([nH]c3ccccc23)C(c2ccc(Br)cc2Cl)N1 (centres unmarked) | parasite growth | Dd2 |  | 300 ± 40 nM
CN1CCN(c2ccc(Nc3ccnc4cc(Cl)ccc34)cc2)CC1 | parasite growth, SYBR Green | D6 | 72 h, blood stage | 14 nM
O=c1c2c([nH]c3ccccc13)-c1ccc(F)cc1C2 | parasite growth | NF54 | blood stage | 44 nM
O=C(CCCCCONC(=O)c1ccco1)NO | parasite growth | HN12, NF54 | 72 h, gametocyte | ≤ 1000 nM
COc1cc2[nH]c(C)c(-c3ccc(Oc4ccc(OC(F)(F)F)cc4)cc3)c(=O)c2cc1Cl | parasite growth, SYBR Green I | D6, drug-sensitive | 72 h | 6 nM
CC(C)CN1CCC(c2ccc(Nc3ccnc4cc(Cl)ccc34)cc2)CC1 | parasite growth, SYBR Green | DD2 | 72 h, drug-resistant strain, blood stage | 10 nM
CCCOC(=O)C1=C(C)NC2=C(C(=O)CC(c3ccc(OC)c(OC)c3)C2)C1c1ccccc1F (centres unmarked) | male gamete formation | stage V gametocytes | 24 h, compound washed out | 139 nM
CCOC(=O)C(Cc1c[nH]c2ccc([N+](=O)[O-])cc12)C(=O)OCC | parasite growth, parasite lactate dehydrogenase | NF54 (chloroquine-sensitive) |  | 54000 nM
Clc1ccc2c(Nc3ccc(C4COCCN4Cc4ccccc4)cc3)ccnc2c1 (centres unmarked) | parasite growth, SYBR Green | D6 | 72 h, blood stage | ≥ 250 nM
CC1(c2ccc(Cl)cc2)NC(C(=O)O)Cc2c1[nH]c1ccccc21 (centres unmarked) | parasite growth | Dd2 |  | > 10000 nM
Clc1ccc2c(Nc3ccc(C4CN(Cc5ccccc5)CCO4)cc3)ccnc2c1 (centres unmarked) | parasite growth, SYBR Green | DD2 | 72 h, drug-resistant strain, blood stage | ≥ 250 nM
COc1ccc(C(=O)/C=C/c2ccc(OCc3cn(-c4ccnc5cc(Cl)ccc45)nn3)c(OC)c2)c(OC)c1 | parasite growth | DD2 | drug-resistant strain, blood stage | 70 nM
CCOC(=O)c1cnc(SC)nc1Nc1ccc(Cl)cc1 | parasite growth, [3H]hypoxanthine incorporation | NF54 (chloroquine-sensitive) |  | 6180 nM
CCN1CCOCC1c1ccc(Nc2ccnc3cc(Cl)ccc23)cc1 (centres unmarked) | parasite growth, SYBR Green | D6 | 72 h, blood stage | 69 nM

A few entries again:
Compound | assay | test system | setting | IC50
O=C(CCCCCONC(=O)c1ccco1)NO | parasite growth | HN12, NF54 | 72 h, gametocyte | ≤ 1000 nM
COc1cc2[nH]c(C)c(-c3ccc(Oc4ccc(OC(F)(F)F)cc4)cc3)c(=O)c2cc1Cl | parasite growth, SYBR Green I | D6, drug-sensitive | 72 h | 6 nM
CC(C)CN1CCC(c2ccc(Nc3ccnc4cc(Cl)ccc34)cc2)CC1 | parasite growth, SYBR Green | DD2 | 72 h, drug-resistant strain, blood stage | 10 nM
CCCOC(=O)C1=C(C)NC2=C(C(=O)CC(c3ccc(OC)c(OC)c3)C2)C1c1ccccc1F (centres unmarked) | male gamete formation | stage V gametocytes | 24 h, compound washed out | 139 nM
CCOC(=O)C(Cc1c[nH]c2ccc([N+](=O)[O-])cc12)C(=O)OCC | parasite growth, parasite lactate dehydrogenase | NF54 (chloroquine-sensitive) |  | 54000 nM
Clc1ccc2c(Nc3ccc(C4COCCN4Cc4ccccc4)cc3)ccnc2c1 (centres unmarked) | parasite growth, SYBR Green | D6 | 72 h, blood stage | ≥ 250 nM
